Assay results pooled from the literature.
A part holds a random share of what one study measured. Changes are numbered by the printed parent chain.

Block 1 — technique: RNA Bind-n-Seq; form: RNA; medium: in vitro; tested at: 365 nM; relative to: no-protein control; reading: higher = stronger binding; measurement: RBNS enrichment (R)
Target: RNA binding protein fox-1 homolog 2, RRM domain, GST-SBP tag (RBFOX2, Homo sapiens, UniProt O43251-10, residues 100-194)
Setting: natural RNA segment, single round, ends assumed
Shared flanks, not repeated: GGGAGUUCUACAGUCCGACGAUC … UGGAAUUCUCGGGUGCCAA
Construct (chain): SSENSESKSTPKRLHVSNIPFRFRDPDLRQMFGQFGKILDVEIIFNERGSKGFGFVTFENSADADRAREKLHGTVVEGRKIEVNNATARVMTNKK
GUUGUAUGGGGCUUUCCCAGAAUCCCCUUCCCUGAGCAUCCUGGUCUCCCCCACACACACCUGUCACCUCUCUACAGAGACCCUGAGGGUGCGGUGAGAUGGAGGCCAUG: 0.895
CAGGUAUCACAAAGCAUUUGUGAAUUGCUUUAGGUGCAGGGACACCACCCACUCAGGACUCUUCCCCAUCAUCCCUUCCAUUGCCACACCCUAGAUCCAGCCUCAGGAAC: 0.542
CUGUAACUGAGGUUAGGAAAAGAUGUGCCCUUCCUUCCUCCCAGCCUUUCUCCCCUCUGCUUCCUCAUUACUUUUGUCCUCCCUGGGAGCGUUCGCGCUCUGGGUCACUG: 0.574
UGGAAGAAGGCAGUGGUGGUGGACAUCACAGAGCACUGCCAUUGAUAUCAGACUCCACAUAUGGCCUUAUUAAUUGCUGUAGGAAGCAUCUUGGGACUGGAAGAUAUGAU: 1.06
CACACACGCACACACAGACCCACAGCUUUGAAUGAUCAUGUUGUGGCUGAGCAGCCGCUUUUUAGACGUUAUCAUUUUGCCUCAUGUUGGAGGACUUUAUGGAAUUUAAG: 0.736
AGCUCUGAAAUUUGAAAGUCUACGAAGAAAGCCUGGGUUCAUCAGCUGCCCAGCCCCACCUCUCCACUGAGCGCUCUCUCUCUCUCCAUCUCCCUCUCUCCCUCUUUCCC: 0.897
AACCAGCUUUUUAAAAAUAUGUAGCGCUUGUCAUGAGAGGUACUGGGGAAAAGAAUGUGCAGUAGAGUGCAAAUACAUUACAAUUACUGGAAAAUUGGUGGAAAAUGCUU: 4.44
GUGGCCAAGCGAGGUCUCAGGUGCAAAGCAAAAGGACCAUUUAAAGUAAAAUAGCUUGGAUUCAAUCAUGUGACUUUUAAAUUGGCUCAGAAAGCAAUUUUGUAAUUUCA: 0.789
CCCCAACUUGGCUCGGCAUGUGAAUUCUUAGCUCUGCAAGGUGUUUAUGCCUUUGCGGGUUUCUUGAUGUGUUCGCAGUGUCACCCCAGAGUCAGAACUGUACACAUCCC: 0.532
UCCACAACUGCAUUCACUAUCACUUCUUGAGAUGGGACAGAUAUCCGUGCGUCAGUGGCUGGCAGAAGAAAGACGCCUUUGUCUGUGUAAUGCCUCUGUUAACUUUGCCA: 0.455
ACAAAACCACAGUGUACCAUUAAAAUAUGCACUAAGUCUCUUUUUUACAAAGGCUGUAUUCAGCAAGGCGCUAACUUGCUUAAAUGUGAAUUACUAACUUCUAAAACUGU: 0.338
UCACUGCGCUCAAGGAAAAAGUCAGAUGGGUGACAAGGUGGUUCUGUUUAGAAGCAGCAGGCAAUGUAGUUAACAGCAUAGACUUCCGUGUCUUGUGUGUGGUACCUUGG: 3.62

Block 2 — technique: protein binding microarray; form: double-stranded DNA, one strand shown; medium: in vitro; tested at: not given; relative to: not given; reading: higher = stronger binding; measurement: E-score
Target: Histone acetyltransferase KAT6A, winged helix 1, GST fusion (KAT6A, Homo sapiens, UniProt Q92794, residues 1-85)
Setting: 8-mer, flanks averaged, mean of 2 arrays, mostly near background
Construct (chain): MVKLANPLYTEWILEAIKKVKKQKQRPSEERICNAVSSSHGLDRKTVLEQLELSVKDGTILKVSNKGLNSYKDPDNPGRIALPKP
CGCTACGA: 0.163
AAACGTTC: -0.015
CATGAGCC: -0.191
CATTGTGC: 0.0478
GAACAACC: -0.117
TAACAGGA: -0.149
GCTGTAAC: 0.0496
ACGGCTCG: 0.35
ATATTGAG: -0.0355
ATGGCAAG: 0.0224
CGCTAAAA: 0.194
CATCAAAG: -0.076
CCGTAGAC: 0.235
AGTGCGAA: 0.00783
CAGCGCAG: 0.306
CACCCACG: 0.111
AGCTATCC: -0.164
AATGAGGC: 0.0559
TAAAGCAA: -0.0955
ACGGCGTA: 0.293
GCGTACCC: 0.224
ATGCTTAA: -0.0171

Block 3 — target: CCNE1, cyclin fold, Cln2 fusion (human); technique: yeast growth competition, sequencing; medium: yeast; setting: weak parent motif; relative to: not given; reading: higher = stronger binding; measurement: normalised enrichment score
Starting sequence: MICAL3 docking peptide (human); LQLRRQLSFSEDS
F9M: 0.0114
L3V: 5.99
E11D: 1.5
F9W: 0.22
D12M: 1.27
D12K: 0.544
F9P: 0.0982
R5Q: -0.376
S10R: 0.688
S8M: 0.715
R4P: 0.721
Q2D: 0.557
S8K: 0.654
Q6H: 0.323
Q2W: 0.325
R5P: 0.159
E11C: 1.34
R5L: 0.0594
R4Q: -0.17
E11N: 0.864
Q2M: 1.13
D12L: 1.34
L3G: 1.7
D12F: 1.81
F9C: 0.239

Block 4 — technique: DHFR PCA, deep sequencing; medium: yeast; added: (+)-ABA 710 µM; relative to: wild-type fitted maximum; reading: higher = stronger binding; measurement: relative binding score
Target: ABI1, truncated, D143A, DHFR fusion (Arabidopsis thaliana)
Setting: methotrexate growth selection, single substitutions
Starting sequence: PYL1, truncated, DHFR fusion (Arabidopsis thaliana); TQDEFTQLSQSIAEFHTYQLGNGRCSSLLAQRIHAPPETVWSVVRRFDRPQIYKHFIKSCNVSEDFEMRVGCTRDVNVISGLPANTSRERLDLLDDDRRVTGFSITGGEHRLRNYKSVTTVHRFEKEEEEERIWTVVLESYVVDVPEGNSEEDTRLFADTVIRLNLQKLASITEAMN
V161H: 25.5%
A30D: 89.7%
T73N: 96.8%
E128K: 112%
I105K: -1.31%
A84E: 46.1%
K58R: 105%
I12L: 91%
V118F: 80.2%
R98V: 104%
S171Q: 96.5%
Y141W: 74.2%
E14P: 68%
G21K: 97.8%
E139G: 41%
V142E: 96.2%

Block 5 — technique: competition protein-binding microarray; form: double-stranded DNA, one strand shown; medium: in vitro; tested at: 2 µM; added: Cbf1 competitor, 0.05 µM; reading: higher = stronger binding; measurement: fluorescence intensity; shared flanks, not repeated: … GTCTTGATTCGCTTGACGCTGCTG
Target: Phosphate system positive regulatory protein PHO4, full length, GST-tagged (PHO4, Saccharomyces cerevisiae, UniProt P07270, residues 1-312)
Setting: whole 60-bp probe, lowest competitor level
Target sequence (chain): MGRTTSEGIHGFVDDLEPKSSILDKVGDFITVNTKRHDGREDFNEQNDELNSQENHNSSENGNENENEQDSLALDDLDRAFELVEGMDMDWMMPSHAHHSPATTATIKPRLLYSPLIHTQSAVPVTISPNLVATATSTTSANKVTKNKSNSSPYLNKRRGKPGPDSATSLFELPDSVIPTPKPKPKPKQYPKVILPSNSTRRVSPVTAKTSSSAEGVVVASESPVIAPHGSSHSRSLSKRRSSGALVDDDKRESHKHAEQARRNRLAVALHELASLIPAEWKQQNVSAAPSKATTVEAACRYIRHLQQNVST
GGATGAAAAACATAAAATGTGACGGATAGTGCCACC: 5210 a.u.
CGTCCTAGTGATTTTCACGTGGTATCCATGAGGAAG: 14300 a.u.
AAATTACTAAGTTGCAAGGTGGGTGACGCCGTATGA: 4160 a.u.
CCATTCATGTCGAGTCACGTGGTGAATACAGATAAT: 19300 a.u.
CATACCCAACCTTGTGACGTGGGTGAAGATATTTGT: 7260 a.u.
TGCGCAACAACTTGCAGTGTGGGTGTATGTCTAGAA: 5780 a.u.
GTCTTGTCTCATTGGCATGTGGGTGTCCCCACTTCA: 9860 a.u.
CTACGCGGGCTATTGCAGGTGAGCAAGACATAGAAT: 4180 a.u.
CGGTTGAGACTTTAGCACGTGCTTTAGTTTATTTAT: 19300 a.u.
CCCGTCCATTGAGTGCCCGTGCCGAATCAAGCTAAA: 9350 a.u.
ATTTTTGAGTCAGTTTCCGTGACGGTGAAGTGAGCG: 3320 a.u.
CAAGCGACTTACACAGACATGACAATTGCTCCAATT: 3940 a.u.
CGGGGTTAAGTTTGCCCGGTGGGTGGCTTGCAGCAG: 5180 a.u.
ACAATGTTTCAACTTCGCGTGCTGTTAAAAAAGTAC: 8090 a.u.
TACGATACTACCATACATGTGATATGTCCCTTTCTA: 7780 a.u.
GGGATCGAAAGAAGGGGCGTGGTGAGAAGGGTAACG: 9400 a.u.
AGGAATGTTAATTCGCTCGTGCGGACTAATTTTTCC: 9540 a.u.
CTTTCCCGATCTTGTGCGGTGGGTGTAGCACATTTG: 6120 a.u.
CGGGGTTAAGTTTGTCATGTGGGTGGCTTGCAGCAG: 9360 a.u.
TTCTTGTAGTCAACGTACATGATGTTGTCGTCCCAA: 6200 a.u.
GCTGCTCTGTACTGTCACATGATTCTTTCCCAACTC: 6450 a.u.
GCATCCACAACCGCTCTCGTGGAACCAAACGAAGAT: 5870 a.u.
GTCTTAACTTCCTGGCACGATTCTGCTTATATTTAT: 9400 a.u.
CTTCTGTAAATTTGAACAGTGGGTGGACGCGCCCCG: 3650 a.u.
ATAGGGCGCTCGGCTCTCGTGCTTTGCGGTGGGAGC: 7240 a.u.

Repeated from above (block 3):
S8M: 0.715
R4P: 0.721
Q2D: 0.557
S8K: 0.654
Q6H: 0.323
Q2W: 0.325
R5P: 0.159
E11C: 1.34
R5L: 0.0594
R4Q: -0.17
E11N: 0.864
Q2M: 1.13
D12L: 1.34
L3G: 1.7
D12F: 1.81
F9C: 0.239
